Measured values collected from several papers.
Protocols differ between the studies behind these lines. ± gives the spread as reported.

SMILES = CCCCCCCOc1ccc(CCC(N)(CO)CO)cc1C(F)(F)F.Cl; test system = healthy male humans, plasma; setting = 0.125 mg, day 21, mean; endpoint = AUCtau; result = 17.5 ng·h/mL
SMILES = C=CC(=O)Nc1cc(Nc2nccc(Nc3cc(Cl)c(F)cc3C(C)(C)O)n2)c(OC)cc1N1CC[C@@H](N(C)C)C1; test system = human patients, plasma; setting = oral, 300 mg daily, cycle 2 day 1, geometric mean; endpoint = AUCtau; result = 9130 ng·h/mL
SMILES = CC(C)(CO)c1cc2cc(NC(=O)C3(c4ccc5c(c4)OC(F)(F)O5)CC3)c(F)cc2n1C[C@@H](O)CO; test system = human, plasma; setting = standard ETI dose; endpoint = AUCtau; result = 51000 ng·h/mL
SMILES = CC[C@H](C)C(=O)O[C@H]1C[C@H](O)C=C2C=C[C@H](C)[C@H](CC[C@@H](O)C[C@@H](O)CC(=O)O)[C@H]21; tested on = COS-7; test = WST-8; setting = 10 µM, 24 h, 0.1% DMSO, unit not given; scale = baseline: vehicle control; endpoint = metabolic activity; result = 0.99 ± 0.03
SMILES = Cc1cc(-c2nccc3c2ccn3CC(=O)Nc2ccc(-c3cnccn3)cn2)ccn1; test system = human, plasma; setting = oral, 15 mg once daily, day 1, geometric mean; endpoint = AUCtau; result = 1130 nmol·h/L
SMILES = Cc1noc(C)c1-c1cc(C(O)(c2ccccn2)c2ccccn2)c2nc(C3CC3)[nH]c2c1; test system = human, plasma; setting = oral, 0.6 mg, cycle 1 day 8, monotherapy; endpoint = AUCtau; result = 643 ng·h/mL
SMILES = O=C(c1cccnc1-c1ccncc1)N1CCC(O)(Cc2ccccc2)CC1; test system = healthy Japanese adults, plasma; setting = oral, 200 mg twice daily, day 14; endpoint = AUCtau; result = 861 ng·h/mL
SMILES = Cc1nc2c(Cl)cccn2c1NC(=O)c1ccc(-c2ccc(N(C)C)cc2)o1; tested on = COS-7; setting = 10 µM, 24 h, 0.1% DMSO, unit not given; scale = baseline: vehicle control; endpoint = confluence; result = 1.09 ± 0.07
SMILES = CC(C)(C)c1cc(C(C)(C)C)c(NC(=O)c2c[nH]c3ccccc3c2=O)cc1O; test system = human, plasma; setting = standard ETI dose; endpoint = AUCtau; result = 9900 ng·h/mL
SMILES = CCc1nc(C(N)=O)c(Nc2ccc(N3CCC(N4CCN(C)CC4)CC3)c(OC)c2)nc1NC1CCOCC1; test system = Japanese patients, plasma; setting = oral, 200 mg, cycle 1 day 28, multiple doses, median; endpoint = AUCtau; result = 19400 ng·h/mL

Some of these lines once more:
SMILES = Cc1nc2c(Cl)cccn2c1NC(=O)c1ccc(-c2ccc(N(C)C)cc2)o1; tested on = COS-7; setting = 10 µM, 24 h, 0.1% DMSO, unit not given; scale = baseline: vehicle control; endpoint = confluence; result = 1.09 ± 0.07
